# Assay results gathered from unrelated publications.
# Each numbered part is a random draw from the data of one study; scales do not carry over between parts.

# Block 1
# Target: Interferon regulatory factor 5, full length, phosphomimetic (IRF5, Homo sapiens, UniProt Q13568-2, residues 1-514, K96S/S451D/S453D/S456D/S462D)
# Method: protein-binding microarray
# Molecule type: double-stranded DNA, one strand shown
# Sample: in vitro
# Concentration: 250 nM
# Setting: 60-bp whole probe
# Together with: salmon DNA 0.4 mg/ml
# Reference: random background probes
# Reading: higher = stronger binding
# All sequences stand within: GCCTAGCAC … GTCTTGATTCGCTTGACGCTGCTG
Sequence,log fluorescence [z-score]
TTAGGTTTCCTTTCCCTTAAGTGCTAG,2.07
TTACGACTGCTTTTCCTTTAGTGCTAG,1.39
GACGGTCTCGGACTGTGGACGTGCTAG,-0.318
GACGAACTGAGTCTCGAGGCGTGCTAG,-0.361
GACGGTATCGGGTATCGGCACGTGCTA,3.5
AACCATTTTGTTTTTCATTAGTGCTAG,1.71
TTAGGACCGGACTTTCGGTTAGTGCTA,9.44
TCACCTTTATGTACTCTCACTGTGCTA,0.624
CACGATATCGGGTATCGAGACGTGCTA,2.33
TTAGGTATCCTAATGCTTTAGTGCTAG,0.102
GAAGATATCGGGACTGGAGACGTGCTA,0.531
CATTGCCTGTTTTTCCCCTGGTGCTAG,0.499
GACGGTATCTTACTGCTGACGTGCTAG,0.0946
TTAGGTATGGGTCTCGGTTAGTGCTAG,0.0546
TCATTTCTAATTTACTTACTGTGCTAG,1.41
TTAGGTCTCTTTATCCTTTAGTGCTAG,0.0601
TTAGATATCGGGGTTCGATTAGTGCTA,1.38
GACGGTTTCGGGAGTGGGGACGTGCTA,4.38
TACTTTCTACGTCTGATTTTGTGCTAG,4.73
GAGGATTTCGGGTTTCGAGACGTGCTA,3.99
TCTGCTTTGCCTTCAGCCCGGTGCTAG,-0.111
ATGTCTTCCCCTCTCTTTCCGTGCTAG,0.231
ATGCATGTGCTGTCTCAGAGTGTGCTA,-0.297
TCATGTGTCTGATTATTACTGTGCTAG,-0.0131
TTAGGTATCAGTATCGATTAGTGCTAG,8.13

# Block 2
# Target: Histone acetyltransferase KAT6A, winged helix 2, GST fusion (KAT6A, Homo sapiens, UniProt Q92794, residues 85-181)
# Method: protein binding microarray
# Molecule type: double-stranded DNA, one strand shown
# Sample: in vitro
# Concentration: not given
# Setting: 8-mer, flanks averaged, mean of 2 arrays, mostly near background
# Reference: not given
# Reading: higher = stronger binding
# Residues (chain): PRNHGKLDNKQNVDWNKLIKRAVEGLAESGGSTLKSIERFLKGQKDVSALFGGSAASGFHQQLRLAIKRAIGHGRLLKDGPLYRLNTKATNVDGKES
Sequence,E-score
CACCCTCC,0.143
CGCACAGA,-0.000785
AGTGGGCC,-0.0833
CCATCTAG,-0.0515
ACTCTTTC,-0.122
TCGCCCGA,0.0836
GTAACAAC,-0.0468
ACATAGCG,-0.0768
CTACCTAC,0.0111
ATGTTAGC,0.034
TACCAATA,-0.0672
AGAAGTTC,-0.226
CGCACTGC,0.185
ATGTAAAT,0.00997
AAGCTCGT,-0.0476
GAATGTCC,-0.033
GGTTAACA,-0.00035
AGCTAATA,-0.021
CAGAGTAG,0.0195
CCCAATAG,-0.138
ACACGTTA,-0.195
CAATGTGC,-0.0647
CACGGCAC,0.0139
CGCTAGAG,0.00367
TTCACCAA,0.0601

# Block 3
# Target: Prothrombin, mature alpha-thrombin (F2, Homo sapiens, UniProt P00734)
# Method: aptamer microarray, sandwich
# Molecule type: DNA with 2'F-ANA
# Sample: in vitro
# Concentration: 200 nM
# Setting: whole 15-mer aptamer, many near background
# Together with: Cy3 exosite-II aptamer, 400 nM
# Reading: higher = stronger binding
# Sequence: GGTTGGTGTGGTTGG
Modification,mean fluorescence intensity
2'F-ANA at 3 6 8 13 14 15,465 a.u.
2'F-ANA at 1 3 8 9 11 13,287 a.u.
2'F-ANA at 3 4 7 10,334 a.u.
2'F-ANA at 3 4 5 6 8 13 14,49.7 a.u.
2'F-ANA at 2 4 5 9 10 11 14 15,61.6 a.u.
2'F-ANA at 1 2 4 5 6 11 12 13 15,65.2 a.u.
2'F-ANA at 1 2 4 5 6 7 8 9 11 12 13 14 15,52.8 a.u.
2'F-ANA at 1 2 3 4 7 9 10 11 12 13 14 15,55.6 a.u.
2'F-ANA at 3 7 8 9 10 14 15,421 a.u.
2'F-ANA at 1 5 8 9 10 11 13 15,51 a.u.
2'F-ANA at 4 5 6 8 14 15,46.9 a.u.
2'F-ANA at 3 4 7 8 9 11 13,605 a.u.
2'F-ANA at 5 6 7 10 11 12,67.9 a.u.
2'F-ANA at 1 2 5 6 7 8 14,55.2 a.u.
2'F-ANA at 1 2 5 6 7 8 9 11 13 14 15,47.9 a.u.
2'F-ANA at 5 6 8 12 14,51.1 a.u.
2'F-ANA at 4 6 7 8 10 11 12 13 15,84.4 a.u.
2'F-ANA at 2 3 5 8 13 15,91.5 a.u.
2'F-ANA at 1 2 3 5 7 10 11 12 13 14 15,60.7 a.u.
2'F-ANA at 1 3 4 7 8 13,200 a.u.
2'F-ANA at 2 3 8 9 10 11 13,390 a.u.
2'F-ANA at 1 4 5 13 14,46 a.u.
2'F-ANA at 1 2 4 5 6 7 9 10 11 14 15,47.9 a.u.
2'F-ANA at 2 4 7 8 9 10 11 12 13 14 15,64 a.u.

# Block 4
# Target: RNA binding protein fox-1 homolog 2, RRM domain, GST-SBP tag (RBFOX2, Homo sapiens, UniProt O43251-10, residues 100-194)
# Method: RNA Bind-n-Seq
# Molecule type: RNA
# Sample: in vitro
# Concentration: 365 nM
# Setting: natural RNA segment, single round, ends assumed
# Reference: no-protein control
# Reading: higher = stronger binding
# All sequences stand within: GGGAGUUCUACAGUCCGACGAUC … UGGAAUUCUCGGGUGCCAA
# Target sequence (chain): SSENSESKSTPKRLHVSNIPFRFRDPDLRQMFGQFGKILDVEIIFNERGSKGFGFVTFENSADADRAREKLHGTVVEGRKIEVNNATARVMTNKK
Sequence,RBNS enrichment (R)
AGCCACCCUUUGCCCAAACCCUGGUAGCUCGGGGAAGCUUGGCUUAAGGCUGCACGCCUCCAAUCCCCCAAAGGGUAGGAUCCUGGCUGGGUCCAGGGUUCCUCUGAUUU,0.221
CAUGGGUGUUUGAUUUCAGAAAUCAGUAUCUGGUGAGAUUUUUGUCUCAAAACUACCAUUUGAAUUUCAAGAACUCUGCUGCAAAACCACUCUGAGAAUGUUUCCAAGUG,1.37
UGAGCAGUGAAUGAUUCAGUGUUAAAUGUGAUGAAUACUGUAUUUUGUAUUGUUUCAAUUGCAUCUCCCAGAUAAUGUGAAAAUGGUCCAGGAGAAGGCCAAUUCCUAUA,1.45
UAUGUUUGUAGGUCUCAUGUGCUCAGGGCUAUGAAGUAGGCUGUGCAGGUGACAGCACCCUGCUAGGAAGCUGUGUGUGUCCUGCCUUUCCUCCUGGAAUAUGUACGGAU,0.315
AUAUAAUGGGUGUGCAGCCAUAGCGAAGCUUUGAGAAGCCCCAAGCCUCAACUGUAACCUGCAGCAAACAGAGAAAUAACAUUCCUGGCAGGAAGAUACAAGUCUUUUUA,0.349
CACACAUCAUUGCUGGGAGAAUUAAGCAUUAUCCUGAAGACUCUGCCAGGAGAGGAUAAUUGGAAGUUCUCUUGGACCUUACCUUAUGUGCCUUUCUUCAUUGCUGAUUU,0.309
AGAAGAAUGGAUGUGGUUCUUCUUGUGUAUUUAUUUGUAUCAUAAACACUUGGAACAACAAAGACCAUAAGCAUCAUUUAGCAGUUGUAGCCAUUUUCUAGUUAACUCAU,0.72
AAGUGCUACCUCUGAUCUAACUAGAGCAAGCUCAUGGCAGAAAAUAUCACAAACUUUAAAAUGUGAAGAUUCCUGUCUCUCCCGUGGUUUUAAAGGCAAGUGGUGUCCAA,0.397
AACCUGACCGGAGCCCGCCAGUACUGGUUGGAGGGCAUGCUGCGGCAUGAGAUAGGCACCCACUACCUGCGGGGCGUGAACAACGCGCGCCAGCCGUGGCACAACGCGGA,0.326
GCUCCACUCUUGCCGCCUUCCAGCUCUGAGUCUUGGGAAUGUUGUUACCCUUGGAAGAUAAAGCUGGGUCUUCAGGAACUCAGUGUCUGGGAGGAAAGCAUGGCCCAGCA,5.55
CUGGUGGCCAAGGUGGGCAGUAGGCAUGAGCUUCCAGCAGGAAAGGACAAGAGAGUAGGCAGGCUUACAGGUGCAGACUGAGUGCUUCUCCGCCUGCCCUCUUCCCCUUG,4.21
UUUGCAGCCCCCAGAGGACCUUGCCUGCAUAAAGCACUCAGAAGGGUUAGCCACCUGGUGAUUUUGUCUCUAGUGAAACUGUGUUUGCCGAUAAUCAUCCACAUAGCCAC,1.22

# Block 5
# Target: Sal-like protein 4, full length isoform A (SALL4, Homo sapiens, UniProt Q9UJQ4, residues 1-1053)
# UniProt Q9UJQ4, sequence (whole entry, looked up): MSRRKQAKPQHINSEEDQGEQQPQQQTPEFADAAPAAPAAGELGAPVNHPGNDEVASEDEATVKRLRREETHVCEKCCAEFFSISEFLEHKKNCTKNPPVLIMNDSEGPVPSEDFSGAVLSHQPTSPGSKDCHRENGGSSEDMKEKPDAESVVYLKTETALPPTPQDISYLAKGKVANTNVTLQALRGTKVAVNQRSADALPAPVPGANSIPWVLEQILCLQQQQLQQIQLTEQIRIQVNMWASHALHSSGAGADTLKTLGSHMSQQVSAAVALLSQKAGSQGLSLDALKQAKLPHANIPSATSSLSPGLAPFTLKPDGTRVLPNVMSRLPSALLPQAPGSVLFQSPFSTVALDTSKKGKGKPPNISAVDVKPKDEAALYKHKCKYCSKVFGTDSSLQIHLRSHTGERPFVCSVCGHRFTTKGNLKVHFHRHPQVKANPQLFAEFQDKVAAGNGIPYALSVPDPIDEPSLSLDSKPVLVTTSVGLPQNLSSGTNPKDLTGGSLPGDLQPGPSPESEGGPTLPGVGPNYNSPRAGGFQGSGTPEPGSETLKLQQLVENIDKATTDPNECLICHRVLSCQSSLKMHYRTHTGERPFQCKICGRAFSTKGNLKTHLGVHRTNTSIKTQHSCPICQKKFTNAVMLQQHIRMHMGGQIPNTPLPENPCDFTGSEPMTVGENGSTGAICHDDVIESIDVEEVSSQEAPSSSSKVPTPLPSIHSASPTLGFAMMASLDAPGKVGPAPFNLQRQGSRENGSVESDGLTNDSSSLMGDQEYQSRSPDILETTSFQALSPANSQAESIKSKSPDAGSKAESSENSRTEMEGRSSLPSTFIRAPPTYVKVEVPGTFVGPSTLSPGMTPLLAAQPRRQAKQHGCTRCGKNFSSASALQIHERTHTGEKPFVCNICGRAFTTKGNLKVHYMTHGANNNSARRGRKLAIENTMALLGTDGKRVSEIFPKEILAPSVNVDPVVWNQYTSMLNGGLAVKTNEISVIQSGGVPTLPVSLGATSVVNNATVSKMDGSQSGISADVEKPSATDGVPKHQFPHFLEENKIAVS
# Method: universal PBM
# Molecule type: double-stranded DNA, one strand shown
# Sample: in vitro
# Concentration: 600 nM
# Setting: 8-mer, flanks averaged, mean of replicates
# Reading: higher = stronger binding
Sequence,E-score
CGCACTGA,-0.267
TAAGTGCA,0.111
AAACCTAA,0.109
ACTATAAT,0.379
GGTGACAC,-0.22
ACGCCATG,-0.0378
CAGAATGC,-0.000135
ATGCGTTC,0.0621
AGCCTTTG,-0.101
TAGAATCA,0.102
GAACCGTA,-0.239
CCCGGGGA,-0.334
ACTTGGCT,-0.145
ACAAGAGA,0.00451
CCGGCCTC,-0.343
TGGCCTAA,0.0169
CAGGGTCA,-0.194
CCTCCGCA,-0.209
CCACGGAG,-0.244
CGGTCGGC,-0.381
AACGGTTG,0.0695
